# Results gathered from unrelated publications.
# Compare with care: the assays were run in different laboratories. Several values in a cell are separate wells, animals, samples, runs or records.
# UniProt Q9UM07, sequence (whole entry, looked up): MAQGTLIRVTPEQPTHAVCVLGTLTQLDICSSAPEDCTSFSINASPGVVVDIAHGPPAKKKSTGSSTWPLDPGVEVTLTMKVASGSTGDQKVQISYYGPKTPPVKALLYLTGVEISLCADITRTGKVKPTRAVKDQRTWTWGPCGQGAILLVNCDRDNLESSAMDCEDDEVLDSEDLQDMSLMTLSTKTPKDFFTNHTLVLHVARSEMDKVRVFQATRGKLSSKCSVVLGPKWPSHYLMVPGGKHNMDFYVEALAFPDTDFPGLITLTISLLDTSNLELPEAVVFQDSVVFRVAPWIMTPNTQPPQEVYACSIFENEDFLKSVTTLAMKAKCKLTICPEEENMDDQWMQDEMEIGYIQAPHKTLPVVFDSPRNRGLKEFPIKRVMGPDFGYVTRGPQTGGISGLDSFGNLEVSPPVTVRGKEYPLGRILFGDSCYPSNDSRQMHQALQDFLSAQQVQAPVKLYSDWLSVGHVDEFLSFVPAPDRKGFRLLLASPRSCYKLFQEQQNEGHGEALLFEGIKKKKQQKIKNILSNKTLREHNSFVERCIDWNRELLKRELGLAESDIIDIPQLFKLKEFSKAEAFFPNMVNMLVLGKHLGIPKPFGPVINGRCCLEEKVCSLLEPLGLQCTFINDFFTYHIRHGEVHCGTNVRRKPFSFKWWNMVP
# UniProt Q9HCP0, sequence (whole entry, looked up): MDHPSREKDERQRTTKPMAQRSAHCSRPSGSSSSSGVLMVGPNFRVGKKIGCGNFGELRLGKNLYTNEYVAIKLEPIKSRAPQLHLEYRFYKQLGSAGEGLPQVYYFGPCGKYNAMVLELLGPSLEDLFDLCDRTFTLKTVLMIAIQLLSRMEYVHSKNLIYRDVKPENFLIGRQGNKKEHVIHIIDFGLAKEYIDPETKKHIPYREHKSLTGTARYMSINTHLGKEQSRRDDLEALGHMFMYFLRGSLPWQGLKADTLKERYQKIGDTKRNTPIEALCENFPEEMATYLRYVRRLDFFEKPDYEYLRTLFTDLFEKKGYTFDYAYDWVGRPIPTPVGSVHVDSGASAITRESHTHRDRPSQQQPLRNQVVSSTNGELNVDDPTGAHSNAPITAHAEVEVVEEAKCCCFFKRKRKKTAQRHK
# UniProt Q16620, sequence (whole entry, looked up): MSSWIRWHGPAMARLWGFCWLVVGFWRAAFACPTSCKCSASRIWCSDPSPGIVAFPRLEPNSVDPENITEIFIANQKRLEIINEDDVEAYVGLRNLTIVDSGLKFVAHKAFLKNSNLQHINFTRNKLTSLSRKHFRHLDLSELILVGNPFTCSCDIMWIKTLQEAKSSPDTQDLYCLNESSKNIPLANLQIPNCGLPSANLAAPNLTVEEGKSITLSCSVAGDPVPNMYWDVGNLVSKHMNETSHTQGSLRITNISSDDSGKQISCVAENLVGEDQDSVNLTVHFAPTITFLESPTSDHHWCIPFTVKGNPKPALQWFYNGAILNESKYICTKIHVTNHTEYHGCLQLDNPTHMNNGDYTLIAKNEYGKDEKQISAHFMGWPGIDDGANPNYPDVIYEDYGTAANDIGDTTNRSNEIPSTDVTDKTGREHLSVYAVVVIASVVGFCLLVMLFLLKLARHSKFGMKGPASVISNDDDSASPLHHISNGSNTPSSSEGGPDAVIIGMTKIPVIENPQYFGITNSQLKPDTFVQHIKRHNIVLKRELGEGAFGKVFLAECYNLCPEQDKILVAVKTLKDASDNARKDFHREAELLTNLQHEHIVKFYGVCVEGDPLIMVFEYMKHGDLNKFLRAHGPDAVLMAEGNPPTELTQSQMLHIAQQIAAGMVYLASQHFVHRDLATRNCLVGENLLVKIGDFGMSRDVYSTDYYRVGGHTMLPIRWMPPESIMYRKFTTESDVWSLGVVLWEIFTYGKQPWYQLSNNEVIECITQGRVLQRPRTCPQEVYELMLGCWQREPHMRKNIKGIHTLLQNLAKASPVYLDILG
# UniProt P15735, sequence (whole entry, looked up): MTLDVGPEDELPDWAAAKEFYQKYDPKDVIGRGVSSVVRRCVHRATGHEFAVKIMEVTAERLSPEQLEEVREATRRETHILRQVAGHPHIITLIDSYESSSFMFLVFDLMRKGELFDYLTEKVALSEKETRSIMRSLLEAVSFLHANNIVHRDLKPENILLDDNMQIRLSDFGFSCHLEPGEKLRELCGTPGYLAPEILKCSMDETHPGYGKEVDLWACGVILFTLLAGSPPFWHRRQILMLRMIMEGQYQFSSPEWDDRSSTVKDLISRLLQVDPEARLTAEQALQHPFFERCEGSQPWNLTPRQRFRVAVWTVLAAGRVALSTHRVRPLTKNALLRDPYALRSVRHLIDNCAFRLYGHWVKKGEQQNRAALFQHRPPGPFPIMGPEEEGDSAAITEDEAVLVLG
# UniProt Q91WC9, sequence (whole entry, looked up): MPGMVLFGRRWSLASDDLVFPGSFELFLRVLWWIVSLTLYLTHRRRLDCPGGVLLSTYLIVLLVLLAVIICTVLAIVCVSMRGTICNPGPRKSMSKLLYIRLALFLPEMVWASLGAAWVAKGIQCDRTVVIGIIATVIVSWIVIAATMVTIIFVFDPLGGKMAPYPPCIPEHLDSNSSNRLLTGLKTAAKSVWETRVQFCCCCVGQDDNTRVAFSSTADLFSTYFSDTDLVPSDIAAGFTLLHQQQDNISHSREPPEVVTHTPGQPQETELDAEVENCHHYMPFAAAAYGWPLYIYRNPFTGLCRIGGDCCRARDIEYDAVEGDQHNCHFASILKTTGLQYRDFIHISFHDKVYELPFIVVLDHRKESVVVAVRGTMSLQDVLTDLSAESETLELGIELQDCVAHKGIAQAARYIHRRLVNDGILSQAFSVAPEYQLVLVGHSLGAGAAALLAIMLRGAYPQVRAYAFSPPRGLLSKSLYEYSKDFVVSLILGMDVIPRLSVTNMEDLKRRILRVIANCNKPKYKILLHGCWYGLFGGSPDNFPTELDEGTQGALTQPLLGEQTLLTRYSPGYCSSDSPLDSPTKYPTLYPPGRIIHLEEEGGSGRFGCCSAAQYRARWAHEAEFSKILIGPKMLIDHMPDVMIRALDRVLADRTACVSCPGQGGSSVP
# UniProt O96017, sequence (whole entry, unmodified, looked up): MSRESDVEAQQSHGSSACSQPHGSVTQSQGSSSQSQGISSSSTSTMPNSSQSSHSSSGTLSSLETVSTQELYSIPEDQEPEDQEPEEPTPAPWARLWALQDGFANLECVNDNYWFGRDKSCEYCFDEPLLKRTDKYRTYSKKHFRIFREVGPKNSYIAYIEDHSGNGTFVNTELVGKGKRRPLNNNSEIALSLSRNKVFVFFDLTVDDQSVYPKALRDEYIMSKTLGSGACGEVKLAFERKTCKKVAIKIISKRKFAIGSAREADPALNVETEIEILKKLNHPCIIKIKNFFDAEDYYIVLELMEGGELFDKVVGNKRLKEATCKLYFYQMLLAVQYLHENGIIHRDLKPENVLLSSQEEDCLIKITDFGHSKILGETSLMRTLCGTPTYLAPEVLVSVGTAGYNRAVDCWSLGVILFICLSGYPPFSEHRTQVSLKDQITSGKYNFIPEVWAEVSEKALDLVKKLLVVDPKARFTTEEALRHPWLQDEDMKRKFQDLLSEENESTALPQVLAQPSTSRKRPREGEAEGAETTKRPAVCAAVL
# UniProt P32245, sequence (whole entry, looked up): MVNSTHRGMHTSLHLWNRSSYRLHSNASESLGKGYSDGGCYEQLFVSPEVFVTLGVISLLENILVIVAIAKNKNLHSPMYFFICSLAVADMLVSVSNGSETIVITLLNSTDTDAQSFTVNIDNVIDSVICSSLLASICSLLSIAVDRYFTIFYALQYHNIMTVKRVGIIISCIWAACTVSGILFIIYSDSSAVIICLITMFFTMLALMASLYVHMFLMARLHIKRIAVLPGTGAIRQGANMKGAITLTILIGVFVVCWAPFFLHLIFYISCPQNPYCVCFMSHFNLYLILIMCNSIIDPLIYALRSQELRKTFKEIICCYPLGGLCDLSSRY
# UniProt Q13873, sequence (whole entry, looked up): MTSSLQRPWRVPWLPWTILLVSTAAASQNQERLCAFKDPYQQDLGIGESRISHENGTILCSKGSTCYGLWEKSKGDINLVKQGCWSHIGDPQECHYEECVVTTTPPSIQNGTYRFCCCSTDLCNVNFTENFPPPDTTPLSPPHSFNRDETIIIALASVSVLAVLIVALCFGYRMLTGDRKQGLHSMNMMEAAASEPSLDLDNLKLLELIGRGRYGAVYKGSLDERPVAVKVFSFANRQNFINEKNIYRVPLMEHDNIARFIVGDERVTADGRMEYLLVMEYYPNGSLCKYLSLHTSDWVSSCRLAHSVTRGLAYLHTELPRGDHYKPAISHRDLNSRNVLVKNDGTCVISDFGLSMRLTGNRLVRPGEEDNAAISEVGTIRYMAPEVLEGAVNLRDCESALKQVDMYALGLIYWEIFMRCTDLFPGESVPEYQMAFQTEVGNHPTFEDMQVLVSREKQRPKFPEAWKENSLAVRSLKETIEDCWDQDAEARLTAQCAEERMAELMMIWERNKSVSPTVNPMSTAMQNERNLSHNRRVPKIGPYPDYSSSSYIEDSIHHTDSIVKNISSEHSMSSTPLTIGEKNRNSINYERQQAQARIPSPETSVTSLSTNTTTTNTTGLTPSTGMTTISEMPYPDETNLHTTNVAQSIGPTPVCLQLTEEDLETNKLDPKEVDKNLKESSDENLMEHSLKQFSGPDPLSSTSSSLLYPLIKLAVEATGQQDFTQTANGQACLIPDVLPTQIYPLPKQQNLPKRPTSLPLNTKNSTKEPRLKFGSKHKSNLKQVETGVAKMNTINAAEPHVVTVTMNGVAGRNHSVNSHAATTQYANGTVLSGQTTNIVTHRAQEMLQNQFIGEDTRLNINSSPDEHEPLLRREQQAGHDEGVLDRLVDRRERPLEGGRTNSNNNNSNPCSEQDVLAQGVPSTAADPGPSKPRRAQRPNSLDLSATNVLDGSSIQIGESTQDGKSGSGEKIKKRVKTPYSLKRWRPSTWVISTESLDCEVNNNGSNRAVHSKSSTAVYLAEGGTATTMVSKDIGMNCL
Compound,target or system,test,system,conditions,how to read,measurement,result
CN(C)[C@H]1C[C@@]23CC[C@@]4(O2)C(=CC[C@]2(C)[C@@H](c5ccc6ccncc6c5)CC[C@H]24)C=C3[C@@H](O)[C@@H]1O,"PHKG2 (Homo sapiens, UniProt P15735)","ATP probe labelling, inhibitor, KiNativ profiling",,0.1 µM,,inhibition,-5.5%
C#CCN(Cc1ccc2nc(C)[nH]c(=O)c2c1)c1ccc(C(=O)N[C@H](CCC(=O)OC)C(=O)OC)cc1,Mycobacterium tuberculosis,"bacterial growth, inhibitor",H37Rv pptT conditional knockdown,"PptT depleted, ATc withheld",,MIC90,> 100 µM
CC(C)[C@H]1NC(=O)C[C@H]2/C=C/CCSSC[C@@H](NC1=O)C(=O)N[C@H](Cc1cccc3ccccc13)C(=O)NCC(=O)O2,"CSNK1G1 (Homo sapiens, UniProt Q9HCP0)","enzyme activity, inhibitor",,10 µM,,inhibition,1.5%
Cc1ccsc1C(=O)C1CCCN(Cc2cnc(N3CCCC3)s2)C1 (centres unmarked),Trypanosoma cruzi,"reporter mRNA translation, inhibitor, measured: capped polyadenylated Renilla luciferase mRNA",cell-free extract,concentration not given,baseline: control RNA,relative translation,117%
O=C1NC(=O)c2c1c1cc(F)c[n+]3c1c1c2c2cc(O)ccc2[n]1[Ru-4]312([N]=C=S)[S+]3CC[S+]1CC[S+]2CC3 (centres unmarked),"NTRK2 (Homo sapiens, UniProt Q16620)",enzyme activity,,"100 nM, human enzyme, with: 10 µM ATP",baseline: untreated,remaining activity,68%
Cc1sc2c(c1C)C(c1ccc(Cl)cc1)=NC(CC(=O)OC(C)(C)C)c1nnc(C)n1-2 (centres unmarked),"MC4R (Homo sapiens, UniProt P32245)","ligand displacement, radioligand",,1 µM,,remaining binding,100%
Nc1ccc(/C=C/C(=O)N2CCc3c(oc4c(-c5ccc(F)cc5)cc(-c5ccc(C(=O)N6CCC(F)(F)CC6)cn5)cc34)C2)cn1,"BMPR2 (Homo sapiens, UniProt Q13873)","binding, competition with immobilised ligand",,1 µM,,remaining binding,80%
N[C@H](C(=O)N1CCCC1)C1CCN(c2nccc3c(-c4ncc(Cl)cc4Cl)cccc23)CC1,"PADI4 (Homo sapiens, UniProt Q9UM07)",enzyme activity,,"3.84 µM, high-affinity site, with: Ca2+ 1.5 mM",,kcat,0.35 s⁻¹ and 0.365 s⁻¹
CCCn1ncc(CN2CCCC(C(=O)c3cccc(OC)c3)C2)c1C (centres unmarked),Trypanosoma cruzi,"reporter mRNA translation, inhibitor, measured: Renilla luciferase mRNA",cell-free extract,"concentration not given, test 1",baseline: positive over negative control,translation activity,128% and 109%
CS(C)(=O)=Nc1ccc(-c2ccc(-c3nc4cc(O[C@@H]5CO[C@H]6[C@@H]5OC[C@H]6O)[nH]c4cc3F)cc2)cc1,"CHEK2 (Homo sapiens, UniProt O96017, I157T)","enzyme activity, inhibitor",,10 µM,,inhibition,-22%
CC(C)CC(O)(CC(C)C)c1cn(C(=O)N2CCCC2)nn1,"Diacylglycerol lipase-beta (Mus musculus, UniProt Q91WC9)",,"mouse, brain",concentration not given,baseline: vehicle over compound,activity-based probe labelling ratio,1.56
